Published values pooled from the literature.
± gives the spread as reported.
UniProt P43144, sequence (whole entry, looked up): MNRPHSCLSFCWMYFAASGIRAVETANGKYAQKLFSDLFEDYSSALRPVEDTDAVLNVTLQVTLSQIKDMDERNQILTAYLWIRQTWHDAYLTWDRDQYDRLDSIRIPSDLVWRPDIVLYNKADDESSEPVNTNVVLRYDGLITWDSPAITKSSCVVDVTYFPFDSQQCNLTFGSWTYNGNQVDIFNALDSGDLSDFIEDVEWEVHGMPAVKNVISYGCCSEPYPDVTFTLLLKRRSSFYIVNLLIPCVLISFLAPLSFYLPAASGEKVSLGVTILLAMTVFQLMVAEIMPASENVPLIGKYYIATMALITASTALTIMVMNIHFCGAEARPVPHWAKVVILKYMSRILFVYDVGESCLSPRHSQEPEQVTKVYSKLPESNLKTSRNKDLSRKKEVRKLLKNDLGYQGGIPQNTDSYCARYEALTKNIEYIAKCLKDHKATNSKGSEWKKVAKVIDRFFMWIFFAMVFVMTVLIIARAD
UniProt P23979, sequence (whole entry, looked up): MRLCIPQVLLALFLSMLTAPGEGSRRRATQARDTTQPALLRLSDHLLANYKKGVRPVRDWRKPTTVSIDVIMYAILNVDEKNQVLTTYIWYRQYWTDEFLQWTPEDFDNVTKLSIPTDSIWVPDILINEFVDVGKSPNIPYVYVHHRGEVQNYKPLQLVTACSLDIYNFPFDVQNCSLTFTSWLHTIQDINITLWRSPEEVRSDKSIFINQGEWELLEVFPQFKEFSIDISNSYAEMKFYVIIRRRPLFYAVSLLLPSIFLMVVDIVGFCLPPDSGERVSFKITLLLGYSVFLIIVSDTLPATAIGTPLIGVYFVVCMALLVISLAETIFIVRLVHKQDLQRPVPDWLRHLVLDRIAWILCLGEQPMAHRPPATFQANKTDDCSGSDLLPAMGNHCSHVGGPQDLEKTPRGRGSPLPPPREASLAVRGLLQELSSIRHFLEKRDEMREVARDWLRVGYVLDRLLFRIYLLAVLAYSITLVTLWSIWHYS
UniProt Q9JLB5, sequence (whole entry, looked up): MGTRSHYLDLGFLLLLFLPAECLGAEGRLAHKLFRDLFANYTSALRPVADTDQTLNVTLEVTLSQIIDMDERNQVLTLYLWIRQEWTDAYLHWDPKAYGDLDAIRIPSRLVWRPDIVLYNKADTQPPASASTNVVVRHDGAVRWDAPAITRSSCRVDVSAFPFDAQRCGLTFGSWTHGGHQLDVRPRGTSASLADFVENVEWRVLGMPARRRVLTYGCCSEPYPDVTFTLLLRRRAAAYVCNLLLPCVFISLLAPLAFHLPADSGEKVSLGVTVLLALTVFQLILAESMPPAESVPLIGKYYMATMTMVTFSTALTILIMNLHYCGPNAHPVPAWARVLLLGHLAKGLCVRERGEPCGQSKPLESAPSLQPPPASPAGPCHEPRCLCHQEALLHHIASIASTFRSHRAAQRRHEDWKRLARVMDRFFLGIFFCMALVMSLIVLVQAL

Substance | target or system | assay | setting | endpoint | value
CC(C)[C@@H]1NC(=O)[C@H](CC(N)=O)NC(=O)[C@H](Cc2ccc(O)cc2)NC(=O)[C@H](CCCNC(=N)N)NC(=O)[C@@H]2CSSC[C@@H]3NC(=O)[C@H](CCCCN)NC(=O)[C@@H]4CCCN4C(=O)CNC(=O)CNC(=O)[C@@H]4CSSC[C@H](NC(=O)[C@H]([C@@H](C)O)NC(=O)CNC(=O)[C@H]([C@@H](C)O)NC3=O)C(=O)N[C@@H]([C@@H](C)O)C(=O)N[C@H]3CSSC[C@H](NC(=O)CNC(=O)[C@H](Cc5c[nH]c6cc(Br)ccc56)NC(=O)CNC(=O)[C@H](CO)NC(=O)[C@@H]5CCCN5C(=O)[C@H](Cc5c[nH]cn5)NC1=O)C(=O)NCC(=O)N[C@@H](CSSC[C@H](NC(=O)[C@H](CCCCN)NC(=O)[C@H](CO)NC(=O)[C@H](CO)NC(=O)[C@H](CC(N)=O)NC(=O)[C@H]([C@@H](C)O)NC3=O)C(=O)NCC(=O)N2)C(=O)N[C@@H](C)C(=O)N[C@H](C(=O)N[C@@H](CO)C(N)=O)CSSC[C@H](NC(=O)CN)C(=O)N[C@@H]([C@@H](C)O)C(=O)N[C@@H](CCCNC(=N)N)C(=O)N[C@@H]([C@@H](C)O)C(=O)N4 | Htr3a (Mus musculus, UniProt P23979) | receptor response, antagonist |  | Hill slope | 1
GP Gn glycoprotein (Andes virus) | itself | cryo-EM |  | subunits per oligomer | 4
CC[C@H](C)[C@@H]1NC(=O)CNC(=O)[C@H](CC(N)=O)NC(=O)[C@H](CC(N)=O)NC(=O)[C@H](CO)NC(=O)[C@@H]2CSSC[C@@H]3NC(=O)[C@H](CC(N)=O)NC(=O)[C@H]([C@@H](C)O)NC(=O)[C@H](CO)NC(=O)[C@H]([C@@H](C)O)NC(=O)[C@H](Cc4ccccc4)NC(=O)[C@@H]4CSSC[C@H](NC(=O)[C@H](CO)NC(=O)CNC(=O)[C@H](CCC(N)=O)NC3=O)C(=O)N[C@@H](CCC(=O)O)C(=O)N[C@H]3CSSC[C@H](NC(=O)CNC(=O)[C@@H]5CCCN5C(=O)[C@H](CCC(N)=O)NC(=O)[C@H](CCCNC(=N)N)NC1=O)C(=O)N[C@@H](CO)C(=O)N[C@@H](CSSC[C@H](NC(=O)CNC(=O)[C@@H]1C[C@@H](O)CN1C(=O)[C@@H]1C[C@@H](O)CN1C(=O)[C@H](CO)NC(=O)[C@H](CC(C)C)NC3=O)C(=O)N[C@@H](Cc1ccc(O)cc1)C(=O)N2)C(=O)N[C@@H]([C@@H](C)O)C(=O)N[C@H](C(=O)N1CCC[C@H]1C(=O)NCC(=O)N[C@H](C(N)=O)[C@@H](C)O)CSSC[C@H](NC(=O)[C@@H](NC(=O)[C@H](CO)NC(=O)CNC(=O)[C@@H](N)CO)[C@@H](C)O)C(=O)N[C@@H]([C@@H](C)O)C(=O)N4 | Nicotinic acetylcholine receptor alpha9/alpha10 (Rattus norvegicus, UniProt P43144+Q9JLB5) | ion current, antagonist | concentration not given, with: acetylcholine 300 µM co-applied | ACh-evoked response | 99.47 ± 0.9%
GP Gc glycoprotein (Andes virus) | itself | cryo-EM |  | subunits per oligomer | 2
Gn/Gc heterodimer (Rift Valley fever virus) | itself | cryo-EM |  | subunits per oligomer | 6
ohr (Burkholderia pseudomallei, UniProt Q3JK82) | itself | SEC |  | subunits per oligomer | 2
HA ectodomain trimer, cleaved (Influenza A virus) | itself | X-ray crystallography |  | subunits per oligomer | 3
F fragment (Nipah virus) | itself | SEC |  | subunits per oligomer | 3

A few entries again:
Substance | target or system | assay | setting | endpoint | value
ohr (Burkholderia pseudomallei, UniProt Q3JK82) | itself | SEC |  | subunits per oligomer | 2
